Assay results gathered from unrelated publications.
Every numbered part comes from another study and shows a few of its results, in no order. Numbers after ± are the reported error.
Sequence of UniProt P26368 (whole entry, looked up): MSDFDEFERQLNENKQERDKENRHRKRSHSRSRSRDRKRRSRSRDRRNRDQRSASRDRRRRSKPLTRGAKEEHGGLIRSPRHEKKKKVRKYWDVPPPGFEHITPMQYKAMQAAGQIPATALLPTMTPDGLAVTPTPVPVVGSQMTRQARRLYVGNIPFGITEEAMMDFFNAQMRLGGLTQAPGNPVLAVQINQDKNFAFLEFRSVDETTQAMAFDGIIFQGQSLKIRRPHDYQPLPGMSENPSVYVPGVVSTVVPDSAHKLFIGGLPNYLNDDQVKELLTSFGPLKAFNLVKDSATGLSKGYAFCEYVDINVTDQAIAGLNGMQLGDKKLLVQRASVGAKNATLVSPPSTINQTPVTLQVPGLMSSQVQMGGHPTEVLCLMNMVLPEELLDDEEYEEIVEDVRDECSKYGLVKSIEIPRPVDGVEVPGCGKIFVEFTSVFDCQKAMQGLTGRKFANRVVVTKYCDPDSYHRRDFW
Sequence of UniProt P13393 (whole entry, looked up): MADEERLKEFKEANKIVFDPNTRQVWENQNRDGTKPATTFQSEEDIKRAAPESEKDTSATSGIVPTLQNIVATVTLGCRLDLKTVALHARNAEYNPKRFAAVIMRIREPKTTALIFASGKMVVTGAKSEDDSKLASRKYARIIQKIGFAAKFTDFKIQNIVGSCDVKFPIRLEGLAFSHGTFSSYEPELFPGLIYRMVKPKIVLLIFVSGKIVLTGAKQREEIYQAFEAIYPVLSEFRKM

Set 1
Cell line: CYB5R4 knockout human cells
Read-out: PP6 interaction
Method: 3xFLAG-PP6C IP-MS
Concentration: concentration not given
Baseline: CYB5R4 KO over parental
B1: human RAB1A; sequence looked up; chain SSMNPEYDYLFKLLLIGDSGVGKSCLLLRFADDTYTESYISTIGVDFKIRTIELDGKTIKLQIWDTAGQERFRTITSSYYRGAHGIIVVYDVTDQESFNNVKQWLQEIDRYASENVNKLLVGNKCDLTTKKVVDYTTAKEFADSLGIPFLETSAKNATNVEQSFMTMAAEIKKRMGPGATAGGAEKSNVKIQSTPVKQSGGGCC
B2: PLRG1 (human); sequence looked up; chain MVEEVQKHSVHTLVFRSLKRTHDMFVADNGKPVPLDEESHKRKMAIKLRNEYGPVLHMPTSKENLKEKGPQNATDSYVHKQYPANQGQEVEYFVAGTHPYPPGPGVALTADTKIQRMPSESAAQSLAVALPLQTKADANRTAPSGSEYRHPGASDRPQPTAMNSIVMETGNTKNSALMAKKAPTMPKPQWHPPWKLYRVISGHLGWVRCIAVEPGNQWFVTGSADRTIKIWDLASGKLKLSLTGHISTVRGVIVSTRSPYLFSCGEDKQVKCWDLEYNKVIRHYHGHLSAVYGLDLHPTIDVLVTCSRDSTARIWDVRTKASVHTLSGHTNAVATVRCQAAEPQIITGSHDTTIRLWDLVAGKTRVTLTNHKKSVRAVVLHPRHYTFASGSPDNIKQWKFPDGSFIQNLSGHNAIINTLTVNSDGVLVSGADNGTMHLWDWRTGYNFQRVHAAVQPGSLDSESGIFACAFDQSESRLLTAEADKTIKVYREDDTATEETHPVSWKPEIIKRKRF
B3: poly(rC)-binding protein 2, human; sequence looked up; chain MDTGVIEGGLNVTLTIRLLMHGKEVGSIIGKKGESVKKMREESGARINISEGNCPERIITLAGPTNAIFKAFAMIIDKLEEDISSSMTNSTAASRPPVTLRLVVPASQCGSLIGKGGCKIKEIRESTGAQVQVAGDMLPNSTERAITIAGIPQSIIECVKQICVVMLETLSQSPPKGVTIPYRPKPSSSPVIFAGGQDRYSTGSDSASFPHTTPSMCLNPDLEGPPLEAYTIQGQYAIPQPDLTKLHQLAMQQSHFPMTHGNTGFSGIESSSPEVKGYWGLDASAQTTSHELTIPNDLIGCIIGRQGAKINEIRQMSGAQIKIANPVEGSTDRQVTITGSAASISLAQYLINVRLSSETGGMGSS
B4: human MTREX; sequence looked up; chain ADAFGDELFSVFEGDSTTAAGTKKDKEKDKGKWKGPPGSADKAGKRFDGKLQSESTNNGKNKRDVDFEGTDEPIFGKKPRIEESITEDLSLADLMPRVKVQSVETVEGCTHEVALPAEEDYLPLKPRVGKAAKEYPFILDAFQREAIQCVDNNQSVLVSAHTSAGKTVCAEYAIALALREKQRVIFTSPIKALSNQKYREMYEEFQDVGLMTGDVTINPTASCLVMTTEILRSMLYRGSEVMREVAWVIFDEIHYMRDSERGVVWEETIILLPDNVHYVFLSATIPNARQFAEWICHLHKQPCHVIYTDYRPTPLQHYIFPAGGDGLHLVVDENGDFREDNFNTAMQVLRDAGDLAKGDQKGRKGGTKGPSNVFKIVKMIMERNFQPVIIFSFSKKDCEAYALQMTKLDFNTDEEKKMVEEVFSNAIDCLSDEDKKLPQVEHVLPLLKRGIGIHHGGLLPILKETIEILFSEGLIKALFATETFAMGINMPARTVLFTNARKFDGKDFRWISSGEYIQMSGRAGRRGMDDRGIVILMVDEKMSPTIGKQLLKGSADPLNSAFHLTYNMVLNLLRVEEINPEYMLEKSFYQFQHYRAIPGVVEKVKNSEEQYNKIVIPNEESVVIYYKIRQQLAKLGKEIEEYIHKPKYCLPFLQPGRLVKVKNEGDDFGWGVVVNFSKKSNVKPNSGELDPLYVVEVLLRCSKESLKNSATEAAKPAKPDEKGEMQVVPVLVHLLSAISSVRLYIPKDLRPVDNRQSVLKSIQEVQKRFPDGIPLLDPIDDMGIQDQGLKKVIQKVEAFEHRMYSHPLHNDPNLETVYTLCEKKAQIAIDIKSAKRELKKARTVLQMDELKCRKRVLRRLGFATSSDVIEMKGRVACEISSADELLLTEMMFNGLFNDLSAEQATALLSCFVFQENSSEMPKLTEQLAGPLRQMQECAKRIAKVSAEAKLEIDEETYLSSFKPHLMDVVYTWATGATFAHICKMTDVFEGSIIRCMRRLEELLRQMCQAAKAIGNTELENKFAEGITKIKRDIVFAASLYL
B5: human RAB15; sequence looked up; chain MAKQYDVLFRLLLIGDSGVGKTCLLCRFTDNEFHSSHISTIGVDFKMKTIEVDGIKVRIQIWDTAGQERYQTITKQYYRRAQGIFLVYDISSERSYQHIMKWVSDVDEYAPEGVQKILIGNKADEEQKRQVGREQGQQLAKEYGMDFYETSACTNLNIKESFTRLTELVLQAHRKELEGLRMRASNELALAELEEEEGKPEGPANSSKTCWC
Molecule | log2 fold change
B1 (human RAB1A) | -0.1
B2 (PLRG1) | -0.74
B3 | -2.11
B4 (human MTREX) | 0.26
B5 (human RAB15) | -0.11

Single results of other studies
T1: TOA1/TOA2 1-286; 1-122 (Saccharomyces cerevisiae); chain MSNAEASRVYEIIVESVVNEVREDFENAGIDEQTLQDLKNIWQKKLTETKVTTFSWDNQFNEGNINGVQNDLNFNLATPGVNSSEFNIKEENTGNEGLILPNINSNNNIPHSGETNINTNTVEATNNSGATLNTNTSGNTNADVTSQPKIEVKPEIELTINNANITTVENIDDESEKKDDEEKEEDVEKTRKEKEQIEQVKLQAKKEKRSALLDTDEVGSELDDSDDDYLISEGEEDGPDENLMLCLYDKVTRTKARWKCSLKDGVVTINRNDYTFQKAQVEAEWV; chain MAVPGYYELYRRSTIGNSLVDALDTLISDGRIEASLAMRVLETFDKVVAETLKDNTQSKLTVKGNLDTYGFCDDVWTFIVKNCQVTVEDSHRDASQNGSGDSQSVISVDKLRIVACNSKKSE
Molecule | target or system | assay | system | conditions | endpoint | value
CCGGGTTCCTGTTTCCCGGCCGCGGCCACTCCAGATCAAGTCAATCGGTCC (dsDNA; 5'-amino-C6 primer) | SPT15 full length assumed (Saccharomyces cerevisiae, UniProt P13393) | array | double-stranded DNA, one strand shown | TBP alone | Kd | 2.21 ± 0.27 nM
human ME2 M75L |  | enzyme activity, NADH absorbance |  | with fumarate 3 mM, added: L-malate varied | Hill coefficient | 1.1 ± 0.05
TTGTGCTACGGTCTCTCCACCCCCTGCTGCTGCTGTCAAGTCAATCGGTCC (dsDNA; 5'-amino-C6 primer) | T1, TOA1/TOA2 1-286; 1-122 (Saccharomyces cerevisiae) | array | double-stranded DNA, one strand shown | TFIIA alone | Kd | 109 ± 46.9 nM
human ME2 I99V |  | enzyme activity, NADH absorbance |  | with fumarate 3 mM, added: L-malate varied | Hill coefficient | 1.01 ± 0.03
UUAUUUCUU (ssRNA) | U2AF2 148-342 (Homo sapiens, UniProt P26368) | sequencing of bound RNA | RNA | motif only | Kd | 580 nM

For quick reference, copied from above (single results of other studies):
Molecule | target or system | assay | system | conditions | endpoint | value
UUAUUUCUU (ssRNA) | U2AF2 148-342 (Homo sapiens, UniProt P26368) | sequencing of bound RNA | RNA | motif only | Kd | 580 nM
TTGTGCTACGGTCTCTCCACCCCCTGCTGCTGCTGTCAAGTCAATCGGTCC (dsDNA; 5'-amino-C6 primer) | T1, TOA1/TOA2 1-286; 1-122 (Saccharomyces cerevisiae) | array | double-stranded DNA, one strand shown | TFIIA alone | Kd | 109 ± 46.9 nM
